# Measured values from different studies.
# Each line is one published result; not all experiments were run side by side. “And” joins repeats or separate records; there may be more than shown. ± gives the spread as reported.
SMILES,assay,test system,conditions,Cmax
CCc1nc(C(N)=O)c(Nc2ccc(N3CCC(N4CCN(C)CC4)CC3)c(OC)c2)nc1NC1CCOCC1,,"female FVB mice, wild-type, plasma","oral, 10 mg/kg, single dose",0.327 ± 0.033 µg/mL
Cc1c(C(=O)O)ccc2c3n(nc12)[C@@H]1[C@H](C3)N(CC2CC2)[C@@]2(C(=O)Nc3cc(Cl)ccc32)[C@H]1c1cccc(Cl)c1F,,"female BALB/c nude mice, SJSA-1 xenograft, plasma","oral, 1 mg/kg twice daily",1.52 µM and 1.24 µM and 1.48 µM and 1.51 µM and 1.08 µM
COc1cc(C)[nH]c(=O)c1CN1CCc2c(Cl)cc([C@H](OC)C3COC3)c(Cl)c2C1=O,,"female CB17 SCID mice, HT-1376 xenograft, plasma","75 mg/kg, day 1",3.74 µg/mL
Cc1ccc(CCC(=O)Nc2nnc(S(N)(=O)=O)s2)cc1,,"BALB/c mice, male, plasma","oral, 20 mg/kg, unbound",5.91 µM
COc1cc([C@@H]2Oc3ccc([C@H]4Oc5cc(O)cc(O)c5C(=O)[C@@H]4O)cc3O[C@H]2CO)ccc1O,,"FVB wild-type mice, plasma","oral gavage, 500 mg/kg silymarin",0.2 µM
CC1(C)CC[C@]2(C(=O)O)CC[C@]3(C)C(=CC[C@@H]4[C@@]5(C)C[C@@H](O)[C@H](OC(=O)/C=C/c6ccc(O)cc6)C(C)(C)[C@@H]5CC[C@]43C)[C@@H]2C1 (relative stereo),,"C57BL/6 mice, plasma","intraperitoneal, 85 µmol/kg single dose",79.6 µM
COc1ccc2cc(CCC[18F])ccc2c1,,"Balb/c mice, male, plasma","intravenous, dose not given",12.6 ± 6.4 %ID/mL
CNC(=O)c1cc(Oc2ccc(NC(=O)Nc3ccc(Cl)c(C(F)(F)F)c3)c(F)c2)ccn1,,"male DBA/1lacJ Oatp1b2 knockout mice, plasma","oral, 10 mg/kg single dose",3.64 ± 0.172 µg/mL
CN1C[C@H](COc2nccc3c(NCc4ccco4)cc(Cl)nc23)OC1=O,,"C57BL/6 mice, plasma","oral, 10 mg/kg",2.5 µM
Nc1ncn([C@H]2C[C@H](O)[C@@H](CO)O2)c(=O)n1,UHPLC-MS/MS,"C57BL/6 mice, female, plasma","oral, 0.4 mg/kg",0.142 µg/mL
CCNc1nc2c(c(N3CC(=O)Nc4cc(OC)ccc43)n1)CCC2,,"C57BL/6 mice, female, plasma","intravenous, 4 mg/kg, molar equivalent",~4.6 µM
CC(C)(C)c1ccc(O)c(CN(Cc2cc(C(C)(C)C)ccc2O)C2CCC(NC(N)=O)CC2)c1 (stereo not drawn),,"C57BL/6 mice, male, plasma","oral, 10 mg/kg",1.02 µg/mL
CO[C@H]1C[C@@H]2CC[C@@H](C)[C@@](O)(O2)C(=O)C(=O)N2CCCC[C@H]2C(=O)O[C@H]([C@H](C)C[C@@H]2CC[C@@H](OC(=O)NCCOCCOCCOCCOCCOCCOCCOCCOCCC(=O)N3CCc4cc(Cn5nc(-c6ccc7oc(N)nc7c6)c6c(N)ncnc65)ccc4C3)[C@H](OC)C2)C[C@@H](O)[C@H](C)/C=C(\C)[C@@H](O)[C@@H](OC)C(=O)[C@H](C)C[C@H](C)/C=C/C=C/C=C/1C,,"tumour-bearing xenograft mice, plasma","intraperitoneal, 3 mg/kg, weekly dosing",3.66 µM
C[C@H]1[C@@H](O)O[C@@H]2O[C@@]3(C)CC[C@H]4[C@H](C)CC[C@@H]1[C@@]24OO3,,"female NSG mice, plasma","oral, 120 mg/kg artesunate",3.96 µg/mL
Cc1cc(C)c(CNC(=O)c2cc(Cl)c3c(c2C)O[C@@](C)([C@H]2CC[C@H](N(C)C)CC2)O3)c(=O)[nH]1,,"female CB17 SCID mice, HT-1376 xenograft, plasma","75 mg/kg, day 1",3.09 µg/mL
CCN1CCN(Cc2ccc(NC(=O)c3ccc(C)c(NC(=O)c4cncc(-c5cccs5)c4)c3)cc2C(F)(F)F)CC1,,"C57BL/6 mice, epithelial lining fluid","intraperitoneal, 20 mg/kg",1.86 µg/mL
C=CC(=O)N1CC2CC(n3nc(-c4ccc(C(=O)Nc5ccccn5)cc4)c4c(N)ncnc43)CC2C1 (stereo not drawn),,"SCID mice, plasma","oral, 15 mg/kg twice daily",6.27 µg/mL
COc1cc([C@@H]2Oc3cc([C@H]4Oc5cc(O)cc(O)c5C(=O)[C@@H]4O)ccc3O[C@H]2CO)ccc1O,,"FVB wild-type mice, plasma","oral gavage, 500 mg/kg silymarin",0.59 µM
Cn1c(C(F)(F)F)cc(=O)n(-c2cc(Oc3cccnc3OCC(=O)O)c(Cl)cc2F)c1=O,,"Crl:CD1(ICR) mice, female, plasma","oral diet, 5 ppm in diet, day 1, 90-day toxicity study",0.0285 µg/mL
COc1cc([C@@H]2[C@H]3CO[C@@]4(O)C(=O)[C@@H]2C=C([C@H]2Oc5cc(O)cc(O)c5C(=O)[C@@H]2O)[C@@H]34)ccc1O,,"FVB wild-type mice, plasma","oral gavage, 500 mg/kg silymarin",0.05 µM
CNC(=O)c1cc(Oc2ccc(NC(=O)Nc3ccc(Cl)c(C(F)(F)F)c3)cc2)ccn1,,"female Oatp1b2(-/-) mice, DBA1/lacJ, plasma","oral, 10 mg/kg, no rifampin, geometric mean",4.88 µg/mL

# Excerpt of the above:
SMILES,assay,test system,conditions,Cmax
COc1cc([C@@H]2Oc3ccc([C@H]4Oc5cc(O)cc(O)c5C(=O)[C@@H]4O)cc3O[C@H]2CO)ccc1O,,"FVB wild-type mice, plasma","oral gavage, 500 mg/kg silymarin",0.2 µM
